Measured values of several laboratories.
Each numbered part is a random draw from the data of one study; scales do not carry over between parts. pEC50: −log10 of the molar value.
Sequence of UniProt P10721 (whole entry, looked up): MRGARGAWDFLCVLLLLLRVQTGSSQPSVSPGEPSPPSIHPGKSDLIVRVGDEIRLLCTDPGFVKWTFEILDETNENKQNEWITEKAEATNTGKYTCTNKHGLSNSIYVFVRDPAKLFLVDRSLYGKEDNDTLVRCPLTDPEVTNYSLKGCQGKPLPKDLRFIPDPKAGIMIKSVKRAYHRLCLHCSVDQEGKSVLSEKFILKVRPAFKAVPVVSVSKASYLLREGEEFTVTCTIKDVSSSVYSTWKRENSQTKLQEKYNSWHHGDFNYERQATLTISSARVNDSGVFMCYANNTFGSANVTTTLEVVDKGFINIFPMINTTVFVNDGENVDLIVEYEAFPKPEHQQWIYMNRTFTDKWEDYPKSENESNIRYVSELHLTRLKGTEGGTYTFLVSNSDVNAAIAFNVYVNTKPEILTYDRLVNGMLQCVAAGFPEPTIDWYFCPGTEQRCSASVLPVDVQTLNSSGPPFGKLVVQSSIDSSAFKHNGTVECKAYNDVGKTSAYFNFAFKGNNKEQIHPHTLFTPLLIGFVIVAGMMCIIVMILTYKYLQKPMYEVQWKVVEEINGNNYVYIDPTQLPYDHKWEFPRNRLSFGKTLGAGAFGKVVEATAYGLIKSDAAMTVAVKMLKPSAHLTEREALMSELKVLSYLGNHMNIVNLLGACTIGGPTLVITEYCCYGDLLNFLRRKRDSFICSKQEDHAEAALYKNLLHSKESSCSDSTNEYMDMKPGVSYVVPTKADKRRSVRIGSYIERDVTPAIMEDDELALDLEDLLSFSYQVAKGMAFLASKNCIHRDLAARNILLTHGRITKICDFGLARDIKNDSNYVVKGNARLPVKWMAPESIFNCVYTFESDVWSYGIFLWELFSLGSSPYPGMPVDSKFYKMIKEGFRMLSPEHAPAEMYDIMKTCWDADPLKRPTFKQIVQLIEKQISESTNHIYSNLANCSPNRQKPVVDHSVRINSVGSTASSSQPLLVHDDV
Sequence of UniProt Q8TBX8 (whole entry, looked up): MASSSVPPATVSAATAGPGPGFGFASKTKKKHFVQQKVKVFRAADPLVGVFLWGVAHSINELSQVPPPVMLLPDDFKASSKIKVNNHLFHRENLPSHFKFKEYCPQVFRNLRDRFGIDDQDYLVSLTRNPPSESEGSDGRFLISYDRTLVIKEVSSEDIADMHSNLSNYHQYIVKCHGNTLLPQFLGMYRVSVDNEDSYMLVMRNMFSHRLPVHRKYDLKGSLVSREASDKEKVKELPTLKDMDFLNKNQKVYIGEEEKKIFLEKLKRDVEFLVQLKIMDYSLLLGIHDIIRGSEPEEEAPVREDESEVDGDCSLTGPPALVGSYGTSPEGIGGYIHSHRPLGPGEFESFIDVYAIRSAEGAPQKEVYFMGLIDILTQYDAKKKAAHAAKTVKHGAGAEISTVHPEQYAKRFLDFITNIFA
Sequence of UniProt P51957 (whole entry, looked up): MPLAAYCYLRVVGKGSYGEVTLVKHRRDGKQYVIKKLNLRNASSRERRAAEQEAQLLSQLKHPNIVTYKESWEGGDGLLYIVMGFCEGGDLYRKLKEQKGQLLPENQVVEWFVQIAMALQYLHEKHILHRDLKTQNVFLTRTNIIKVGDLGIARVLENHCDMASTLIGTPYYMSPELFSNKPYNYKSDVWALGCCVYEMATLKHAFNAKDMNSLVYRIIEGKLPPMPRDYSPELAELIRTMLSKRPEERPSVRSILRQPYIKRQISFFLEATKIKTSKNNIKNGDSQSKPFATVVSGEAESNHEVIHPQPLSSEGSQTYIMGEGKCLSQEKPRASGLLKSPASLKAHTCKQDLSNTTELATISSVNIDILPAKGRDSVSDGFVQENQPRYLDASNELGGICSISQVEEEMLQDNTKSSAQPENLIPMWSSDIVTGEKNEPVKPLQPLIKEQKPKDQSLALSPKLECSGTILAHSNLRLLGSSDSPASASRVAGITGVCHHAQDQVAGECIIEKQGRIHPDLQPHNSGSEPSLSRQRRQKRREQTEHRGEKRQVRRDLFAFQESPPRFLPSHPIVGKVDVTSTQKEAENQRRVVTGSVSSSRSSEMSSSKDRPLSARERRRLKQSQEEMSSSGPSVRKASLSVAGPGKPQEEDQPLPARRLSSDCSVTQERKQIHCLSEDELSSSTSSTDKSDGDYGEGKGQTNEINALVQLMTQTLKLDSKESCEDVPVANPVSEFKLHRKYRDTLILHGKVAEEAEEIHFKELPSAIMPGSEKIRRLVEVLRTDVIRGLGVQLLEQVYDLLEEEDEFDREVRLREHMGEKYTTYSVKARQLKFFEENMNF
Sequence of UniProt Q92630 (whole entry, looked up): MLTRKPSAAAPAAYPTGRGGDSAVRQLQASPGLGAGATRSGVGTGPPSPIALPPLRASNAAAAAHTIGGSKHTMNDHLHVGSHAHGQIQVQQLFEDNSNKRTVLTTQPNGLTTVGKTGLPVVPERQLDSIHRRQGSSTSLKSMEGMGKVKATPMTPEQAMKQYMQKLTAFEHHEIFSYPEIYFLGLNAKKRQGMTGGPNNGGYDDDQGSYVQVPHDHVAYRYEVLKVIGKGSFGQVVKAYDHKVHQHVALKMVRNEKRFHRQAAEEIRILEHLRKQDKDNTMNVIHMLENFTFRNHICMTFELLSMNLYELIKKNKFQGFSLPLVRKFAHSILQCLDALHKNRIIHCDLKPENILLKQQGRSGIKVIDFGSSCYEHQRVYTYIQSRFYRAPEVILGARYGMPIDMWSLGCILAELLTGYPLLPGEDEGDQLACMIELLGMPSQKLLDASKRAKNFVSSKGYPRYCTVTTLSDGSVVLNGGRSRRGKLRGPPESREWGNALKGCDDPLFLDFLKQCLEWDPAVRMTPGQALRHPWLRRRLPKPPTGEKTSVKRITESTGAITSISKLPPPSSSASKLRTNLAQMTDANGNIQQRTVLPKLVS
Sequence of UniProt Q9NWZ3 (whole entry, looked up): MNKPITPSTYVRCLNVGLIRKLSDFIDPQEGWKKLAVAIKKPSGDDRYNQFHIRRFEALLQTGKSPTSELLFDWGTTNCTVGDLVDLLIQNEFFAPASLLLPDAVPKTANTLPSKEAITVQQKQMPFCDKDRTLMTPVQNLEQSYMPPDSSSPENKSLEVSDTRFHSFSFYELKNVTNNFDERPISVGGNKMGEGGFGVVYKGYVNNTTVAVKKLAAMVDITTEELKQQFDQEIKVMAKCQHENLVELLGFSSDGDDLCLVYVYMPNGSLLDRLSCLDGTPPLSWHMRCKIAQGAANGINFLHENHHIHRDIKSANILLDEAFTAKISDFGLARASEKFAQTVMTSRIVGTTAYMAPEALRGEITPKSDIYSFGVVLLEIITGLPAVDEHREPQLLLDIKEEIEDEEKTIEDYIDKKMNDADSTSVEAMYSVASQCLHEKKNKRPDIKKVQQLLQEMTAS
Sequence of UniProt Q9NYY3 (whole entry, looked up): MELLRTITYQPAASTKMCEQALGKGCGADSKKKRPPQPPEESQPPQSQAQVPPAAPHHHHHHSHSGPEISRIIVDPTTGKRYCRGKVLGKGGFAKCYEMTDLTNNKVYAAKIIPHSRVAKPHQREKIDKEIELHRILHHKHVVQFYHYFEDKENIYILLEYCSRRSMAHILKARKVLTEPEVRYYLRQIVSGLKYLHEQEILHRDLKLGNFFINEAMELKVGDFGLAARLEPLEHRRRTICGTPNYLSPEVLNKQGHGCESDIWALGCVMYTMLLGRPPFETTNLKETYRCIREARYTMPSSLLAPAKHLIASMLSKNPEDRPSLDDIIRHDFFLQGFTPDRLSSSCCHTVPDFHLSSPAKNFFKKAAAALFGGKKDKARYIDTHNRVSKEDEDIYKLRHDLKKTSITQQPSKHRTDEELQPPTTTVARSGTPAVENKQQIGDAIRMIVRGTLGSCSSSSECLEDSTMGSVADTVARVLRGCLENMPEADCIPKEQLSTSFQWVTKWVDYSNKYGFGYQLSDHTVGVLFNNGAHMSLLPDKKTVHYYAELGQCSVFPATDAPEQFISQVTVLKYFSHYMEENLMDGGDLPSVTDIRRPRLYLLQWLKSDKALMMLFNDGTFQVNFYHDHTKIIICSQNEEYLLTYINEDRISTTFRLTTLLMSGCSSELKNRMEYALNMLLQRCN
Sequence of UniProt P36897 (whole entry, looked up): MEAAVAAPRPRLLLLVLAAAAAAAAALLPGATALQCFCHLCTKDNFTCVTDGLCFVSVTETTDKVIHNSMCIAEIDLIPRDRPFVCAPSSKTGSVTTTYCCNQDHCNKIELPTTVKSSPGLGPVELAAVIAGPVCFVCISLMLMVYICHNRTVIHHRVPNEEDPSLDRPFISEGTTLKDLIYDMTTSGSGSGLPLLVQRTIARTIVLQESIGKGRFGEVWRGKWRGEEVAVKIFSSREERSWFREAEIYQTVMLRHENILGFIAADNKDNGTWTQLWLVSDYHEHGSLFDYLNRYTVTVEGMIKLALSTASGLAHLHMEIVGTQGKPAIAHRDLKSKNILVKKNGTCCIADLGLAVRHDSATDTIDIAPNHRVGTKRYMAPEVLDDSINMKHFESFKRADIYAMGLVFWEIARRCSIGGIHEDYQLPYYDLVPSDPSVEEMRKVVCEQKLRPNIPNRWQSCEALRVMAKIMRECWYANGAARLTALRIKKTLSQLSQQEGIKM

Series 1 — mode: agonist
Target: Beta-1 adrenergic receptor (ADRB1, Homo sapiens, UniProt P08588)
Sequence of UniProt P08588 (whole entry, looked up): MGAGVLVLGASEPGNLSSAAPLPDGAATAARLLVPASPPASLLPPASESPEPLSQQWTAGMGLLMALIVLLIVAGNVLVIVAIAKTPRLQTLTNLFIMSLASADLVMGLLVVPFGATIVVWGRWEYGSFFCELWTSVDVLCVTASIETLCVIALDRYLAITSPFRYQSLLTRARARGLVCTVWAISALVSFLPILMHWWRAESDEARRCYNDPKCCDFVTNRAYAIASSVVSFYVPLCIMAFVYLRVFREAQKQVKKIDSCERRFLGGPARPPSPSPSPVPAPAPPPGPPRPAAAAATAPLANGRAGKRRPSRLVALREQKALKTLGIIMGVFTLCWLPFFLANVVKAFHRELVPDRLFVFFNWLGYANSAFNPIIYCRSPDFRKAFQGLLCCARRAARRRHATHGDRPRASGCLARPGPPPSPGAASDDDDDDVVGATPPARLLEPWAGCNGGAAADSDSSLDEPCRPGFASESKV
The pEC50 of CCN(CC)c1ccc(C2=C(Cl)C(=O)c3ncccc3C2=O)cc1 is reported as at most 4.00.
The pEC50 of CCOC(=O)c1ccc(NC(=O)N2Cc3nc[nH]c3C[C@H]2c2nc(C(C)C)no2)cc1 is reported as at most 4.00.
C[S+](=O)([O-])c1cccc(Nc2n[nH]c(C(O)c3ccccc3)n2)c1 (stereo not shown) gave a pEC50 of at most 4.00.
With Cc1noc2c(-c3cnn(Cc4ccccc4)c3)cc(-c3cccnc3)nc12 the pEC50 was at most 4.00.
Cc1ccc(-c2cc(C(=O)N3CCC(c4nc(C5CCOCC5)no4)C3)c3ccccc3n2)cc1C (stereo not shown) gave a pEC50 of at most 4.00.
O=C1COc2ccc(-c3ccccc3)nc2CN1 gave a pEC50 of at most 4.00.
For Cn1cc(-c2cnc(Nc3cccc(C(F)(F)F)c3)c3c2CCO3)cn1, the pEC50 was at most 4.00.
CCC(=O)NCCCCC(NC(=O)OCc1ccccc1)C(=O)Nc1ccc2c(C)cc(=O)oc2c1 (stereo not shown) gave a pEC50 of at most 4.00.
Cc1cc(C)n(-c2cccc(NC(=O)Cc3noc4ccccc34)c2)n1 gave a pEC50 of at most 4.00.

Series 2
Compound: COc1cc(C(=O)N2CCC(N3CCN(C)CC3)CC2)ccc1Nc1ncc2c(n1)N(C)c1ccccc1C(=O)N2C
For BRAF (mouse); probe labelling, KiNativ ADP probe; mouse brain lysate; 0.1 µM, LYS2 labelled site: inhibition read 16.3%.
It gave 10.3% for inhibition (SYK human; KiNativ profiling; human PBMC; 1 µM, LYS1 site, together with: ADP acyl phosphate probe).
The inhibition was 10.3% (ZAP70 (human); probe labelling, KiNativ, measured: DFG motif peptide; PBMC lysate (human); 0.1 µM, together with: ADP acyl-phosphate probe).
PIP5K3 human; KiNativ profiling; human PBMC; 0.1 µM, ATP site, together with: ADP acyl phosphate probe — inhibition: -10.7%.
It gave 15.3% for inhibition (mouse CaMK2γ; probe labelling, KiNativ ADP probe; mouse brain lysate; 0.1 µM, LYS1 site TSTQEYAAkIINTK).
For SYK mouse; KiNativ profiling; mouse brain lysate; 1 µM, LYS1 site, together with: ADP acyl phosphate probe: inhibition read 15.1%.
The inhibition was -7.7% (human PBMC; probe labeling, inhibitor, KiNativ profiling, measured: FYAVkVLQK; cell lysate; concentration not given, LYS1 site, together with: ADP acyl-phosphate probe 1 µM).
The inhibition was 13.4% (PHKg2 (mouse); probe labelling, KiNativ, measured: Lys1 site peptide; brain tissue lysate (mouse); 0.1 µM, together with: ATP acyl-phosphate probe).
The inhibition was -4.1% (RSK3 domain 1 (mouse); probe labelling, inhibitor, KiNativ ActivX ADP probe; mouse brain lysate; 0.1 µM, activation loop peptide).
It gave -10.2% for inhibition (human PBMC; probe labeling, inhibitor, KiNativ profiling; cell lysate; concentration not given, domain 1, DFG motif site, together with: ADP acyl-phosphate probe 0.1 µM).
The inhibition was 7.2% (human PBMC; probe labeling, inhibitor, KiNativ profiling, measured: YVAVkIHQLNK; cell lysate; concentration not given, LYS1 site, together with: ATP acyl-phosphate probe 0.1 µM).
The inhibition was -2.7% (IGF1R (mouse); probe labelling, KiNativ ADP probe; mouse brain lysate; 0.1 µM, LYS1 labelled site).
It gave -5.5% for inhibition (mouse IKKε and TBK1; probe labelling, KiNativ ATP probe; mouse brain lysate; 1 µM, LYS2 site DIkPGNIMR).
For CaMKK2 (mouse); probe labelling, KiNativ, measured: Lys1 site peptide; brain tissue lysate (mouse); 1 µM, together with: ATP acyl-phosphate probe: inhibition read 29.8%.

Series 3 — Structure (SMILES): CCC(=N\O)/C(C)=C/c1ccc(F)cc1; observed: cell-free assay; technique: competition with immobilised ligand; concentration: 1 µM
For PIK3C2G (Homo sapiens, UniProt O75747): remaining binding read 75%.
For IKBKB (Homo sapiens, UniProt O14920): remaining binding read 83%.
It gave 100% for remaining binding (MAK (Homo sapiens, UniProt P20794)).
It gave 80% for remaining binding (Mast/stem cell growth factor receptor Kit, autoinhibited (KIT, Homo sapiens, UniProt P10721)).
It gave 81% for remaining binding (Ribosomal protein S6 kinase alpha-6, N-terminal kinase domain (RPS6KA6, Homo sapiens, UniProt Q9UK32)).
For PIP4K2C (Homo sapiens, UniProt Q8TBX8): remaining binding read 83%.
It gave 79% for remaining binding (HIPK4 (Homo sapiens, UniProt Q8NE63)).
TLK2 (Homo sapiens, UniProt Q86UE8) — remaining binding: 100%.
It gave 92% for remaining binding (CDKL2 (Homo sapiens, UniProt Q92772)).
For TESK1 (Homo sapiens, UniProt Q15569): remaining binding read 82%.
It gave 91% for remaining binding (FGFR3 (Homo sapiens, UniProt P22607)).
It gave 86% for remaining binding (MAPK8 (Homo sapiens, UniProt P45983)).
The remaining binding was 85% (TGFBR1 (Homo sapiens, UniProt P36897)).
For WNK1 (Homo sapiens, UniProt Q9H4A3): remaining binding read 83%.
It gave 78% for remaining binding (COQ8A (Homo sapiens, UniProt Q8NI60)).
It gave 100% for remaining binding (CAMK1D (Homo sapiens, UniProt Q8IU85)).
BRSK2 (Homo sapiens, UniProt Q8IWQ3) — remaining binding: 100%.
The remaining binding was 91% (SLK (Homo sapiens, UniProt Q9H2G2)).
For MAP3K12 (Homo sapiens, UniProt Q12852): remaining binding read 76%.
DYRK2 (Homo sapiens, UniProt Q92630) — remaining binding: 94%.
EIF2AK1 (Homo sapiens, UniProt Q9BQI3) — remaining binding: 100%.
ULK2 (Homo sapiens, UniProt Q8IYT8) — remaining binding: 46%.
It gave 86% for remaining binding (MYLK3 (Homo sapiens, UniProt Q32MK0)).

Series 4 — observed: enzyme activity; mode: inhibitor; concentration: 0.5 µM; relative to: control
SMILES: O=C1NC(=O)C(c2c[nH]c3ccccc23)=C1c1c[nH]c2ccccc12
PRKCI (Homo sapiens, UniProt P41743) — remaining activity: 96.9%.
It gave 104% for remaining activity (MAPK13 (Homo sapiens, UniProt O15264)).
For PLK2 (Homo sapiens, UniProt Q9NYY3): remaining activity read 97.7%.
For MAP3K10 (Homo sapiens, UniProt Q02779): remaining activity read 79%.
KIT (Homo sapiens, UniProt P10721) — remaining activity: 68.5%.
It gave 93% for remaining activity (MAPK12 (Homo sapiens, UniProt P53778)).
It gave 98% for remaining activity (MAP2K6 (Homo sapiens, UniProt P52564)).
NEK4 (Homo sapiens, UniProt P51957) — remaining activity: 96.4%.
The remaining activity was 89.9% (Cyclin-dependent kinase 9, with cyclin T1 (CDK9, Homo sapiens, UniProt P50750)).
For MKNK2 (Homo sapiens, UniProt Q9HBH9): remaining activity read 89.6%.
The remaining activity was 76.8% (PRKG1 (Homo sapiens, UniProt Q13976)).
For IRAK4 (Homo sapiens, UniProt Q9NWZ3): remaining activity read 92%.

Some of these lines once more (series 3):
It gave 100% for remaining binding (CAMK1D (Homo sapiens, UniProt Q8IU85)).
It gave 79% for remaining binding (HIPK4 (Homo sapiens, UniProt Q8NE63)).
It gave 86% for remaining binding (MYLK3 (Homo sapiens, UniProt Q32MK0)).
ULK2 (Homo sapiens, UniProt Q8IYT8) — remaining binding: 46%.
BRSK2 (Homo sapiens, UniProt Q8IWQ3) — remaining binding: 100%.
The remaining binding was 85% (TGFBR1 (Homo sapiens, UniProt P36897)).
